Published values pooled from the literature.
Parts stem from different laboratories: compare values within a part only. Positions count from the first letter of the parent shown.

Study 1
Target: Sal-like protein 4, full length isoform A (SALL4, Homo sapiens, UniProt Q9UJQ4, residues 1-1053)
Chain of UniProt Q9UJQ4 (whole entry, looked up): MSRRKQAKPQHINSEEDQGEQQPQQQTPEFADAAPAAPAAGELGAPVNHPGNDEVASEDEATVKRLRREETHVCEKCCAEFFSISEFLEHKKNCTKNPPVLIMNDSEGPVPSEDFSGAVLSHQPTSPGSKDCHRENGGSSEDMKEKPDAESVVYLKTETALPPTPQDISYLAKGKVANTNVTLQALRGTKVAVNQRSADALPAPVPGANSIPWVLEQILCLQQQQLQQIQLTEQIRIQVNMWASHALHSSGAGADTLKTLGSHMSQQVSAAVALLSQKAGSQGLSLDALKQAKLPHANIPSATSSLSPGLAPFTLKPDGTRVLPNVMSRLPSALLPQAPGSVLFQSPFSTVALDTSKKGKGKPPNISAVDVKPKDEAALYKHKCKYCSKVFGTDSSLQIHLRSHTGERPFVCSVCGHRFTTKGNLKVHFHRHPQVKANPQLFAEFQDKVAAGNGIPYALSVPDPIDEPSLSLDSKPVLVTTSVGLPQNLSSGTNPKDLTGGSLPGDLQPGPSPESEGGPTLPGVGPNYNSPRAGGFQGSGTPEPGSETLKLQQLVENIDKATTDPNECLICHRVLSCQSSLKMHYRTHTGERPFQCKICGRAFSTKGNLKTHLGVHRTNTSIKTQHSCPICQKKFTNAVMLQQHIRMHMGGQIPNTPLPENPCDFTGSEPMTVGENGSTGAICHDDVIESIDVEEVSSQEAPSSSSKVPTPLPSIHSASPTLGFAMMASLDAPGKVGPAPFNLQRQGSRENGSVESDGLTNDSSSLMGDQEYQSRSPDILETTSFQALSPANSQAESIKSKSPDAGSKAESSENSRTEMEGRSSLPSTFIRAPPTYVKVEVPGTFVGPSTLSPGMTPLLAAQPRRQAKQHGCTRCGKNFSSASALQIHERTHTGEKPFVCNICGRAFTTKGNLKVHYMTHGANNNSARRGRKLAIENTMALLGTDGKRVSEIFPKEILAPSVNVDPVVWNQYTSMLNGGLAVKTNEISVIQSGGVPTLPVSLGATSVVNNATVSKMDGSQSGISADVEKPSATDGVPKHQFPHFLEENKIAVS
Technique: universal PBM
Form: double-stranded DNA, one strand shown
Medium: in vitro
Tested at: 600 nM
Notes: 8-mer, flanks averaged, mean of replicates
Direction: higher = stronger binding
Sequence	E-score
ACGCAGGA	-0.14
ACGAGTAG	0.0374
ATCCCTCA	-0.0978
CTAGGAGC	-0.166
ATCGACAA	0.0741
ATGAAGAG	0.234
AAAAAGCG	0.175
GAGTGCTA	-0.0625
ATAGGGGG	-0.15
GAAGAAAC	-0.0527
GGAATCCC	-0.212
CGAGCTGA	-0.131
GAAGCACC	-0.218
CGACCCCC	-0.32
ACCCACGT	-0.2
CTGGCTTA	-0.107
AAGGCAAG	-0.0839
CTTTGAAA	0.315
ACCGGTAT	-0.237
CGGTATGA	0.125
CGCATTGC	-0.077
AGTCATAA	0.371
ATACAGAA	0.176
CTTACGTA	0.169
AAGGTGCC	-0.194

Study 2
Target: RING finger protein unkempt homolog, zinc fingers 1-6, GST-SBP tag (UNK, Homo sapiens, UniProt Q9C0B0, residues 30-357)
Chain of UniProt Q9C0B0 (30-357, looked up): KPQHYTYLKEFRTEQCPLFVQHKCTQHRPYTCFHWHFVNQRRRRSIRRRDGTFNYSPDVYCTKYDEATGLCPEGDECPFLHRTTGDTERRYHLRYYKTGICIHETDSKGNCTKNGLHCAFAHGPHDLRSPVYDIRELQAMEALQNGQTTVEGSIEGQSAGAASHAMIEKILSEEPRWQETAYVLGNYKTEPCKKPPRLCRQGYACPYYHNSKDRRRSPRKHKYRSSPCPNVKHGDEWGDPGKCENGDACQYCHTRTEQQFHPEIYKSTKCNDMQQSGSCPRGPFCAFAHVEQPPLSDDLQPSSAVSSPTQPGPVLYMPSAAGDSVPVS
Technique: RNA Bind-n-Seq
Form: RNA
Medium: in vitro
Tested at: not given
Notes: RNA with constant flanks, ends assumed
Baseline: input RNA pool
Direction: higher = stronger binding
Sequence	bound/input enrichment
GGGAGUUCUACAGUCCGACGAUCAUCAUAAAAUACAUUGUCAACCGAGGAGAACACAAGAAUGGAGUUCUGGAAGAGGCAAUAACCGCAACAAUUCUUAAAGAGGUUUUGGAAGGCUUAGACUAUCUACACAGAAACGGUCAGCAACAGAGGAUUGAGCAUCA	0.313 ratio
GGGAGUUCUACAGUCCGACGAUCGCACUAGGGUAGAGAGAAAGCGGCACCAGCCAACGGCCUCUGUGCACGUGUGUGCUCCCGCCGCUCAGAGCAGCAAGAAGAAAUGGUUUCCUAUCUGCUGAGGCAAGGGAUGGCACUCGGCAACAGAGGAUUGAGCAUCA	0.321 ratio
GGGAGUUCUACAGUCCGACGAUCGGCCAGGCUUUUGAGCUGAUCUUGAAGCCACCAUCUCCCAUCUCAGAAGCUCCACGAACUCCCGCUUCUCCAAAGAAGAAAGACCUGUCUCUGGAGGAGAUUCAGAAAAAGCUGGAGGCUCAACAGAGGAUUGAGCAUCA	0.716 ratio
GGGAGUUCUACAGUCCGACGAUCAACACAUUUAAUGAACAUCAUACACAAGACAGCAACAUACCUUUCUUUCUUGGUCAGACCAUCCGAUGGAGAGGAUUAUGUCUACUGAAAAUACUUUUGGCACGCCAUCACUUCAGCAAACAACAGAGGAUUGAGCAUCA	0.252 ratio
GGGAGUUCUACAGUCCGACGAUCCUCCAUUUCUUCUCAUUUUGUGGCCUCGGGCUCCACCAGCUGCUCCCCAGUGACAGUCCCCCGCUUCCUUCUACCAUCUACUGACUGUCUCCACUGAGCCUUUCCUACCUUCCCUUCACACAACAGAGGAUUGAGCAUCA	0.529 ratio
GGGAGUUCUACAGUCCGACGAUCAUCCAGUACUCCAAUCACAAAGAACUAAAGACAGAUAAUACAUUAAACCAACGUGCGCAAGCCGUUCUUCAAGCUGUGACAGCGGUCCAGACAGCAAAUACACCUCUUAGUGGCACCACACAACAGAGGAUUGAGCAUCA	0.509 ratio
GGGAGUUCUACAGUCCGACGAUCAUGGAAGAUACCCUGAAGAGGAGGUUUUUCUAUGAUCAAGCUUUUGCUAUUUAUGGAGGUGUCCGUGGUCUGUAUGACUUUGGGCCAGUUGGCUGUGCUUUGAAGAACAAUAUUAUUCAGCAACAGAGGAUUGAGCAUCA	0.145 ratio
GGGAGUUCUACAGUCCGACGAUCGCUUCUAAAAUGUGAUUAUCGACCAUGGUAUGCAUGAUCGUUGUAAUUGUUGACAUUCCUUUCCGAAGUUGUGAAAUGUUACAACUUGUGCUUAUGUAGACACAAUCUUCUGUCUCAGUACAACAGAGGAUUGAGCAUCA	0.116 ratio
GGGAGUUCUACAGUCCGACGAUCUGACUGAAAUAUUAAUAUUUAAAAUACUUCAUUCCUUAAUUCUCCCUCAAUUGCUUUACCCACCGCCUAUUCAAUUCCUUUGUUUGGCGAACUCUGCAAAAUGUGUUACCCACUACUGAGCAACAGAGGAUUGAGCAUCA	0.519 ratio
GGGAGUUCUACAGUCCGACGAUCGCAAAUCUCUAAGUUUUUUGGUUUUUUUUUAUUUUUAAUUUUUAUUUUUGCUUGGGCUUGCUCCGUUUGGGAGGGGAUGGUGCUCCGAGAUCUCUGGAAACAGGAGGCCCCUGUCAGCCACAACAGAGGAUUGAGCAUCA	18.6 ratio
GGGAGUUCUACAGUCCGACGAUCGUAAGAGGUGAGAAGGAAUCUUUAGAUCUUCGAAAGGAAAAAGAGACACUUGAGAAAAAACUCCGAGAUGCAAAUAAGGAACUUGAGAAAAACACUAACAAAAUUAAGCAGCUUUCUCAGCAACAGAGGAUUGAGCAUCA	0.206 ratio

Study 3
Target: Prothrombin, mature alpha-thrombin (F2, Homo sapiens, UniProt P00734)
Technique: aptamer microarray, sandwich
Form: DNA with 2'F-ANA
Medium: in vitro
Tested at: 200 nM
Notes: whole 15-mer aptamer, many near background
Added: Cy3 exosite-II aptamer, 400 nM
Direction: higher = stronger binding
Sequence: GGTTGGTGTGGTTGG
Modification	mean fluorescence intensity
2'F-ANA at 1 2 5 6 7 9 12 13 14 15	47.8 a.u.
2'F-ANA at 2 4 9 11 12 13 14	97.6 a.u.
2'F-ANA at 2 3 4 5 7 9 10 11 14	65.6 a.u.
2'F-ANA at 1 2 5 6 7 9 10 12 14	47.7 a.u.
2'F-ANA at 1 4 6 8 11 12 14	67.5 a.u.
2'F-ANA at 4 5 7 8 9 12 15	170 a.u.
2'F-ANA at 1 8 10 13 14 15	49.2 a.u.
2'F-ANA at 3 4 6 9 10 12 14	168 a.u.
2'F-ANA at 2 3 5 6 7 10 12 13	55.3 a.u.
2'F-ANA at 1 2 4 5 9 11 12 14 15	44.8 a.u.
2'F-ANA at 2 3 4 6 8 10 11 12 14	142 a.u.
2'F-ANA at 3 5 9 12 13 15	169 a.u.
2'F-ANA at 1 2 8 10 11 13	46.5 a.u.
2'F-ANA at 4 6 8 10 11	90.8 a.u.
2'F-ANA at 2 4 5 6 8 9 10 12	57.6 a.u.
2'F-ANA at 1 2 3 4 9 10 11 13	53.4 a.u.
2'F-ANA at 6 9 12 13 15	544 a.u.
2'F-ANA at 2 4 5 7 10 11 12	55.5 a.u.
2'F-ANA at 4 5 10 11 12 14 15	117 a.u.

Study 4
Target: CCNE1, cyclin fold, Cln2 fusion (human)
Technique: yeast growth competition, sequencing
Medium: yeast
Notes: weak parent motif
Baseline: not given
Direction: higher = stronger binding
Starting sequence: CDC42EP1 docking peptide (human); SLVVGKLSFDSSP
Change	normalised enrichment score
SLVVAKLSFDSSP [G5A]	0.161
SLVVGKLSFDASP [S11A]	0.299
SLVVGKLSFDSAP [S12A]	0.177
SLVVGALSFDSSP [K6A]	0.323
ALVVGKLSFDSSP [S1A]	0.453
SLAVGKLSFDSSP [V3A]	0.157
SLVVGKLSADSSP [F9A]	-0.197

Study 5
Target: ABI1, truncated, D143A, DHFR fusion (Arabidopsis thaliana)
Technique: DHFR PCA, deep sequencing
Medium: yeast
Notes: methotrexate growth selection, single substitutions
Added: (+)-ABA 17 µM
Baseline: wild-type fitted maximum
Direction: higher = stronger binding
Starting sequence: PYL1, truncated, DHFR fusion (Arabidopsis thaliana); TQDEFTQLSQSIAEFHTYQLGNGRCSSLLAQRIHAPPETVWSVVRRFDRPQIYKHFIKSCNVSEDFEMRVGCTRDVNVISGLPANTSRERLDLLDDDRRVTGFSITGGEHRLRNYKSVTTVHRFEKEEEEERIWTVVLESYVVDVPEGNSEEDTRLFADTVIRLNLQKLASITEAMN; partner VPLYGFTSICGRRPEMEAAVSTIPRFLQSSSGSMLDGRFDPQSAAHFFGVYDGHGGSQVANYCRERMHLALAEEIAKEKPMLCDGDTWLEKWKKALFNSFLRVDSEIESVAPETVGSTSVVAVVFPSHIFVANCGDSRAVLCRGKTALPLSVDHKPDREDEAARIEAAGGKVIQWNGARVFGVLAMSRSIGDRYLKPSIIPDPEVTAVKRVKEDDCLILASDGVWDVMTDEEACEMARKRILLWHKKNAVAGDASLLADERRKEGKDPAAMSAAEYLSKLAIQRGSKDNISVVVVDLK
Change	relative binding score
H55L	88.9%
V136N	3.29%
Q167N	83.8%
P37Q	48.3%
T73R	62.4%
T1L	83.6%
N85V	83.8%
L94V	34.3%
D159C	11.9%
Q51P	9.27%
T6W	75.6%
R111Y	4.93%
G148Y	37.4%
G23E	59.7%

Mixed results
Substance	target	test	system	setting	scale	endpoint	value
PhoQ, residues 284 288 289 292 302 303 SASVAL	PhoP, residues 12 14 15 18 19 AGCRL (Escherichia coli, UniProt P23836)	Sort-seq, measured: YFP reporter	E. coli	PhoQ-PhoP variant library, added: 10 µM Mg2+	baseline: high Mg2+ state, higher = stronger signaling	fold induction	1.08

Some of these lines once more (study 1):
Sequence	E-score
GAGTGCTA	-0.0625
GAAGCACC	-0.218
ATACAGAA	0.176
GAAGAAAC	-0.0527
ACCCACGT	-0.2
CGACCCCC	-0.32
AAGGTGCC	-0.194
ATGAAGAG	0.234
ATCGACAA	0.0741
ACCGGTAT	-0.237
CGGTATGA	0.125
